Results collected from several papers.
A part holds a random share of what one study measured. Changes are numbered by the printed parent chain.

Sample 1 — technique: DHFR PCA, deep sequencing; matrix: yeast; added: (+)-ABA 0.39 µM; baseline: wild-type fitted maximum; direction: higher = stronger binding
Target: ABI1, truncated, D143A, DHFR fusion (Arabidopsis thaliana)
Notes: methotrexate growth selection, single substitutions
Parent: PYL1, truncated, DHFR fusion (Arabidopsis thaliana); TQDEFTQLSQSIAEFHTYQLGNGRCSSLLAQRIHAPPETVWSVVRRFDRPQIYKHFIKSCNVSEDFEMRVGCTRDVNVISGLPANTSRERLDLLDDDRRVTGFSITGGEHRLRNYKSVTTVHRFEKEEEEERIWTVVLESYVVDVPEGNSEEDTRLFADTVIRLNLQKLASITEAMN
`I12Q` — result for “relative binding score”: -0.296%.
`V142H`: “relative binding score” 2.94%.
`K126T`: “relative binding score” 73.1%.
`L29F` — result for “relative binding score”: -3.44%.
`Y18S`: “relative binding score” 1.15%.
`V76E` — result for “relative binding score”: -9.52%.
`N114T` — result for “relative binding score”: -15.4%.
`H16Y` — result for “relative binding score”: 3.43%.
`S150E` — result for “relative binding score”: 2.96%.
`E67W`: “relative binding score” 6.94%.
For `L166P`, “relative binding score” read 12.9%.
`D3V` — result for “relative binding score”: 23.6%.
For `F56D`, “relative binding score” read -2.74%.
`E129D` — result for “relative binding score”: 68.9%.
`E139S`: “relative binding score” 18.7%.
Under “relative binding score”, `R90H` is recorded as 10.9%.

Sample 2 — technique: RNA Bind-n-Seq; molecule type: RNA; matrix: in vitro; tested at: not given; baseline: input RNA pool; direction: higher = stronger binding
Target: RING finger protein unkempt homolog, zinc fingers 1-6, GST-SBP tag (UNK, Homo sapiens, UniProt Q9C0B0, residues 30-357)
UniProt Q9C0B0, sequence (30-357, looked up): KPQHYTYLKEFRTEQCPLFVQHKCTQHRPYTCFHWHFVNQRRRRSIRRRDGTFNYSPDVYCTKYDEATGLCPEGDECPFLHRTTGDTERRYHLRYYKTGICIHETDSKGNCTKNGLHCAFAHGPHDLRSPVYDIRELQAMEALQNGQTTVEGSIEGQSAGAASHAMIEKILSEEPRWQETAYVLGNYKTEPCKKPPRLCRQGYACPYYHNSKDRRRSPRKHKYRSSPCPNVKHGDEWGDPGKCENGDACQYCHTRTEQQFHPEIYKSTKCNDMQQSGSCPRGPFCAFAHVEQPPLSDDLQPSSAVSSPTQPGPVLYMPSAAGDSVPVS
Notes: RNA with constant flanks, human and mouse sites, ends assumed
For `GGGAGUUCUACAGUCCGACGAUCUUAACAAAAGAAUUCCCUGUAUCAUCUGGAUCUCAACAUCGGAAAAAAGAAGCGGAUAGUGUUUAUGGAGAAUGGGUUCCUGUGGAGAAAAAUGGUGAAGAAAACAAAGAUGAUGAUAAUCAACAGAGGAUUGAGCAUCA`, the bound/input enrichment was 0.554 ratio.
`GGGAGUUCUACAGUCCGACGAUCUUACCCGAGAACGAGGAUGAGCUGGAGAGCACCAACAGGCGCUACACCAAGAGGGACUGCAGCACUUUCCUCAGAACUAGUGAGACGGGCAUCGUGGACCAGGUCAUGGUCACUCUCAACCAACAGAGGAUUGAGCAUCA` gave a bound/input enrichment of 0.102 ratio.
For `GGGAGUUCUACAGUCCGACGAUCUUUCACAUGAAUUGCUGGAAGAAGUUAAAAACUACAACCUUUAAUGAUAAAAUUGACAAGGAUUUUCUACAAGGAAUAUGUCUUACCCCUGACUGUGAAGGUGUCAUUUCUAAGAUUAUCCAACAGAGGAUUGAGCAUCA`, the bound/input enrichment was 0.142 ratio.
`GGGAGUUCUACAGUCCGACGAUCGACCCCAUGCUGCUGCAGUUUUUCAAGUCUCAAGGUUAUAGGGACGGCCCCGGUAAUCCUCUUAGGCAUAAUUACGAAGGUACUUUAAGAGAUCUUCUACAAUUCUUCAAGCCAAGACAACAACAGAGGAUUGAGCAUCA` gave a bound/input enrichment of 0.54 ratio.
`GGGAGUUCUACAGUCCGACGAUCGGUCAUUCAUACAUCACAUUUUAAAUUGGGGACUGUGUGUGCUGGUGUGUGUGUGAGUUCUACGUUUCUACCAUAUGUGAUCAGUUUAAUAGUAACUUUAUUUAUUUAAAAAAAAGAAACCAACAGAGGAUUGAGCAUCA` gave a bound/input enrichment of 4.55 ratio.
The bound/input enrichment of `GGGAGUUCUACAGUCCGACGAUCUCUUUCCAGUAGUAGCCAGGAAAGGUUAUCUGGGUUAGGGUUUUUGUUGUUUGUAUUUAGUAGGUUUUUGUUUUGUUUUGUUUUGUUUAACCUCUGUGCUGUUUACAUAAACAAAUUGCUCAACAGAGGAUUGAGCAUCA` is reported as 63.1 ratio.
`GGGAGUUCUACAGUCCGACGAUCCAGAAGAACUUCUUUACAGAUCUAAUUCAAGACUGGUCUAGUGAUAAUGCUCCAGACAUUUUCUCAUUUGUUCCAUACACAUGGAAUUUUAAAAUCAUGUUUCAUCAGUUUGAGAUGAUUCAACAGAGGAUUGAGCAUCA` gave a bound/input enrichment of 0.359 ratio.
`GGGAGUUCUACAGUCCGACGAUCUCGCAAAGAUUUAAGUAUCUUAUAAGAACUGUUUGCCAGUGCAAUUAUGAGAAGCUGUUUUAGGUUAUGUGAAAGAGAUGUUUCCUCAUCUCUAAGGCUUACCAGAAGCUCUGAUUUGAACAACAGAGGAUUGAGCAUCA` gave a bound/input enrichment of 0.162 ratio.
`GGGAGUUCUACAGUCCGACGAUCUUCAUUGAUAACUUUGGGGGCAGCACUUUUAACUGUAGUCUACUAACUUCAAAAACAAACAAACAAAACUGAAGAAAAAUAUCUAACUGCUUAACUGCUGCCGAGACCUCCACAGCAACUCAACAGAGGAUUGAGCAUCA` has a bound/input enrichment of 0.388 ratio.
`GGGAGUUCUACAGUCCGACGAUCGGCUGACAUGGCUGGCCAUUAAGCUUUAUAAAAUCAUGUGGGCUCUGAAAUUGUUCUUUUAUGUGUCUAGCAAGUAUUUAAUAAACCCUUGUAUAGUAAUUUUGUUGUUGUUGGGUGCUGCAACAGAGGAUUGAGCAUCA` gave a bound/input enrichment of 6.76 ratio.
With `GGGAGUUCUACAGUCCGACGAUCUACAAAUAUUUGCAGAAACCCAUGUAUGAAGUACAAUGGAAGGUUGUCGAGGAGAUAAAUGGAAACAAUUAUGUUUACAUAGACCCGACGCAACUUCCUUAUGAUCACAAAUGGGAGUUUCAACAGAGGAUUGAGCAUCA` the bound/input enrichment was 0.145 ratio.

Sample 3 — target: CCNA1, cyclin fold, Cln2 fusion (human); technique: yeast growth competition, sequencing; matrix: yeast; notes: weak parent motif; baseline: not given; direction: higher = stronger binding
Parent: AKAP12 docking peptide (human); GSPLKKLFTSTGL; partner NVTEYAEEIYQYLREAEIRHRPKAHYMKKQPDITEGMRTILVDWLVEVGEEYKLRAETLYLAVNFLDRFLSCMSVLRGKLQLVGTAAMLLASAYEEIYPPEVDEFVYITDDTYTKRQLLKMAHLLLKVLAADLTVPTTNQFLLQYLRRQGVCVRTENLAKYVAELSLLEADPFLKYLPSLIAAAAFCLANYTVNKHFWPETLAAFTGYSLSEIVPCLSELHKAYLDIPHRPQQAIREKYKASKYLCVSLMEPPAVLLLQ
For `GSALKKLFTSTGL [P3A]`, “normalised enrichment score” read 0.182.
`GSPLKKLFTSAGL [T11A]` — result for “normalised enrichment score”: -0.254.
Under “normalised enrichment score”, `GSPLRKLFTSTGL [K5R]` is recorded as -0.541.
`GAPLKKLFTSTGL [S2A]` — result for “normalised enrichment score”: 0.227.
Under “normalised enrichment score”, `GSPLKKLFASTGL [T9A]` is recorded as 0.0827.
`GSPAKKLFTSTGL [L4A]`: “normalised enrichment score” 0.0836.
`GSPLAKLFTSTGL [K5A]` — result for “normalised enrichment score”: 0.0723.
`GSPLKKAFTSTGL [L7A]` — result for “normalised enrichment score”: 0.0705.

Sample 4 — technique: protein-binding microarray; molecule type: double-stranded DNA, one strand shown; matrix: in vitro; tested at: 250 nM; notes: 60-bp whole probe; added: salmon DNA 0.4 mg/ml; baseline: random background probes; direction: higher = stronger binding; constant ends, left off below: GCCTAGCAC … GTCTTGATTCGCTTGACGCTGCTG
Target: Interferon regulatory factor 7, full length, phosphomimetic (IRF7, Homo sapiens, UniProt Q92985, residues 1-503, S101K/S471D/S472D/S475D/S476D/S477D/S483D/S484D/S487D)
Target sequence (chain): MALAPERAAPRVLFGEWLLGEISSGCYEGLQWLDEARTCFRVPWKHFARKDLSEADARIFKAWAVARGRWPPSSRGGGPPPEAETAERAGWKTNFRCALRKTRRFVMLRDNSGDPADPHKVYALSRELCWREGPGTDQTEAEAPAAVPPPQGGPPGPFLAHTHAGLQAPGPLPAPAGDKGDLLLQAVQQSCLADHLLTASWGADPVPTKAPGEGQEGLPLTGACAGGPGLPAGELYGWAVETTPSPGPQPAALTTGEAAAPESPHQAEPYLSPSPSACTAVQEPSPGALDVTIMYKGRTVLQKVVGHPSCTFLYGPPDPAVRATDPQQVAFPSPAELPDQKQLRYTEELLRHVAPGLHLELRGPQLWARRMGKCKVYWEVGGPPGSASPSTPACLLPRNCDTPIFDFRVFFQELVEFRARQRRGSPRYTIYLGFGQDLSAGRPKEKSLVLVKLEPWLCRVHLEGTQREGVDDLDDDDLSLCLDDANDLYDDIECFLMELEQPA
`TTAGGTCCCCTTATCCTTTAGTGCTAG` gave a log fluorescence of 0.81 z-score.
With `TTAGGTATCCTACTGCTTCAGTGCTAG` the log fluorescence was -0.0618 z-score.
For `TCAAAGATCATTCTCACACTGTGCTAG`, the log fluorescence was -0.0308 z-score.
The log fluorescence of `CACGGACTGGGTTTCGGGACGTGCTAG` is reported as 1.56 z-score.
For `TTAGGGATCGGTATCGGTTAGTGCTAG`, the log fluorescence was 1.94 z-score.
The log fluorescence of `GGGGTTTCGGATGGGATGTCGTGCTAG` is reported as 4.46 z-score.
`TTAGATATCGGGATTGGATTAGTGCTA` has a log fluorescence of 0.11 z-score.
With `GGCGGTCTCGGTTTCGGGACGTGCTAG` the log fluorescence was 7.98 z-score.
With `GACGGTTTCCGTTCCGGGACGTGCTAG` the log fluorescence was 5.14 z-score.
The log fluorescence of `GACGGTCTCGTACTGCTGACGTGCTAG` is reported as 0.673 z-score.
For `TTCGATATCAGTTTCGATTAGTGCTAG`, the log fluorescence was 8.4 z-score.
For `CTTCCCCTCTCATTCCAATTGTGCTAG`, the log fluorescence was 1.69 z-score.
With `TTAGGTATCTACTATCGGTTAGTGCTA` the log fluorescence was 0.423 z-score.
`CTAGGACTGGGTCTCGGTTAGTGCTAG` has a log fluorescence of 1.21 z-score.
`GACGGTCTCGGTACCGGGACGTGCTAG` gave a log fluorescence of 0.53 z-score.
For `TCATTTTTTTTTGTATTACTGTGCTAG`, the log fluorescence was 1.06 z-score.
For `TCACGTCTGGGTGTTTTACTGTGCTAG`, the log fluorescence was -0.355 z-score.
`GACGGTTTCCTTCACCTGACGTGCTAG` has a log fluorescence of 1.15 z-score.

Some of these lines once more (sample 1):
Under “relative binding score”, `R90H` is recorded as 10.9%.
`D3V` — result for “relative binding score”: 23.6%.
`E139S`: “relative binding score” 18.7%.
